{"data": "Assay results pooled from the literature", "cell line": "HUVEC", "note": "Protocols differ between the studies behind these lines. “And” joins repeats or separate records; there may be more than shown. Numbers after ± are the reported error."}
{"SMILES": "CC[C@H](C)[C@H](NC(=O)[C@H](CCCCN)NC(=O)[C@H](Cc1ccccc1)NC(=O)[C@H]1CCC[C@@H]1NC(=O)CN)C(=O)N[C@H](CC(=O)N[C@@H](CCCCN)C(=O)N[C@@H](CCCCN)C(=O)N[C@H](CC(=O)N[C@@H](CC(C)C)C(=O)N[C@@H](CCCCN)C(=O)N[C@@H](CC(C)C)C(=O)N[C@H](CC(N)=O)Cc1ccccc1)[C@@H](C)CC)[C@@H](C)CC", "assay": "cytotoxicity", "endpoint": "IC50", "result": "3.6 µg/mL"}
{"SMILES": "Oc1ccc(C#Cc2cccc3c2C(c2ccc(O)cc2)(c2ccc(O)cc2)c2cc(O)ccc2-3)cc1", "assay": "cell growth or viability, MTT", "conditions": "48 h", "endpoint": "IC50", "result": "> 50000 nM"}
{"SMILES": "COc1ccc(CC[C@H]2OC(=O)[C@@H]3CCCCN3C(=O)C(=O)C(C)(C)COC(=O)C=CCCN(C)C(=O)[C@H](CC(C)C)N(C)C(=O)[C@H]3CCCN3C(=O)[C@H](Cc3ccccc3)NC(=O)[C@H](c3ccccc3)NC(=O)CCC(=O)Nc3cccc2c3)cc1OC", "assay": "thymidine uptake, inhibitor", "endpoint": "IC50", "result": "64 ± 15 nM"}
{"SMILES": "CNC(NN=Cc1ccc([N+](=O)[O-])o1)=[S+][Au-][Cl]", "assay": "total tube length, tube formation", "conditions": "IC10, 16 h", "scale": "relative to: untreated", "endpoint": "inhibition", "result": "37.7%"}
{"SMILES": "COc1ccc(CC[C@H]2OC(=O)[C@@H]3CCCCN3C(=O)C(=O)C(C)(C)COC(=O)C=CCCN(C)C(=O)[C@H](CC(C)C)N(C)C(=O)[C@H]3CCCN3C(=O)[C@H](Cc3cccc4ccccc34)NC(=O)[C@H](c3ccccc3)NC(=O)CCC(=O)Nc3cccc2c3)cc1OC", "assay": "thymidine uptake, inhibitor", "endpoint": "IC50", "result": "88 ± 25 nM"}
{"SMILES": "C/C1=C/[C@H](C)C[C@H](C)OC(=O)C[C@H](c2ccc(O)cc2)NC(=O)[C@@H](Cc2ccc(O)cc2)N(C)C(=O)[C@H](C)NC(=O)[C@@H](C)C1", "assay": "cell growth or viability", "endpoint": "GI50", "result": "35 µg/mL"}
{"SMILES": "CC[C@H](C)[C@H](NC(=O)C[C@H](CCCCN)NC(=O)[C@H](CCCCN)NC(=O)C[C@@H](NC(=O)[C@@H](NC(=O)C[C@H](CCCCN)NC(=O)[C@H](Cc1ccccc1)NC(=O)C[C@H](CC(C)C)NC(=O)CN)[C@@H](C)CC)[C@@H](C)CC)C(=O)N[C@H](CC(=O)N[C@@H](CCCCN)C(=O)N[C@@H](CO)CC(=O)N[C@@H](Cc1ccccc1)C(N)=O)CC(C)C", "assay": "cytotoxicity", "endpoint": "IC50", "result": "23.4 µg/mL"}
{"SMILES": "COc1ccc(NC(=O)c2ccc3[nH]c(-c4ccc(N(C)C)cc4)nc3c2)cn1", "assay": "Caspase-Glo", "conditions": "8 µM, 16 h, unit not given", "scale": "relative to: DMSO", "endpoint": "caspase-3/7 activity", "result": "0.568 and 0.583 and 0.945"}
{"SMILES": "COCC[C@@H]1NC(=O)[C@@H](Cc2ccccc2)N(C)C(=O)[C@@H]2CCCN2C(=O)[C@H](CC(C)C)N(C)C(=O)CCC(=O)Nc2cccc(c2)[C@@H](CCc2ccc(OC)c(OC)c2)OC(=O)[C@@H]2CCCCN2C(=O)C(=O)C(C)(C)COC(=O)C=CCCN(C)C1=O", "assay": "thymidine uptake, inhibitor", "endpoint": "IC50", "result": "1100 ± 300 nM"}
{"SMILES": "CC[C@H](C)[C@H](NC(=O)C[C@H](CCCCN)NC(=O)[C@H](Cc1ccccc1)NC(=O)[C@H]1CCC[C@@H]1NC(=O)CN)C(=O)N[C@H](C(=O)N[C@@H](CCCCN)CC(=O)N[C@@H](CCCCN)C(=O)N[C@H]1CCC[C@@H]1C(=O)N[C@@H](CC(C)C)C(=O)N[C@@H](CCCCN)CC(=O)N[C@@H](CC(C)C)C(=O)N[C@@H](Cc1ccccc1)C(N)=O)[C@@H](C)CC", "assay": "cytotoxicity", "endpoint": "IC50", "result": "18.1 µg/mL"}
{"SMILES": "COc1ccc(CC[C@H]2OC(=O)[C@@H]3CCCCN3C(=O)C(=O)C(C)(C)COC(=O)C=CCCN(C)C(=O)[C@H](CC(C)C)N(C)C(=O)[C@H]3CCCN3C(=O)[C@H](Cc3ccc(Cl)cc3)NC(=O)[C@H](c3ccccc3)NC(=O)CCC(=O)Nc3cccc2c3)cc1OC", "assay": "thymidine uptake, inhibitor", "endpoint": "IC50", "result": "123 ± 29 nM"}
{"SMILES": "O=C(O)c1ccc(-c2ccc(O)cc2)c2c1C=C(c1ccc(O)cc1)OC2(c1ccc(O)cc1)c1ccc(O)cc1", "assay": "cell growth or viability, MTT", "conditions": "48 h", "endpoint": "IC50", "result": "> 50000 nM"}
{"SMILES": "CC[C@H](C)[C@H](NC(=O)[C@H](CCCCN)NC(=O)C[C@H](Cc1ccccc1)NC(=O)[C@H](CC(C)C)NC(=O)CN)C(=O)N[C@H](CC(=O)N[C@@H](CCCCN)C(=O)N[C@@H](CCCCN)C(=O)N[C@H](CC(=O)N[C@@H](CC(C)C)C(=O)N[C@@H](CCCCN)C(=O)N[C@@H](CO)CC(=O)N[C@@H](Cc1ccccc1)C(N)=O)[C@@H](C)CC)[C@@H](C)CC", "assay": "cytotoxicity", "endpoint": "IC50", "result": "14.8 µg/mL"}
{"SMILES": "C/C1=C\\CC[C@H](C)OC(=O)C[C@H](c2ccc(O)cc2)NC(=O)[C@@H](Cc2ccc(O)c(I)c2)N(C)C(=O)[C@H](C)NC(=O)[C@@H](C)C1", "assay": "cell growth or viability", "endpoint": "GI50", "result": "7.5 nM"}
{"SMILES": "COc1ccc(CC[C@H]2OC(=O)[C@@H]3CCCCN3C(=O)C(=O)C(C)(C)COC(=O)C=CCCN(C)C(=O)[C@H](C)N(C)C(=O)[C@H]3CCCN3C(=O)[C@H](CO)N(C)C(=O)[C@H](Cc3ccccc3)NC(=O)CCC(=O)Nc3cccc2c3)cc1OC", "assay": "thymidine uptake, inhibitor", "endpoint": "IC50", "result": "> 20000 nM"}
{"SMILES": "O=Cc1ccc2c(c1C#Cc1ccc(O)cc1)C(c1ccc(O)cc1)(c1ccc(O)cc1)c1cc(O)ccc1-2", "assay": "cell growth or viability, MTT", "conditions": "48 h", "endpoint": "IC50", "result": "> 50000 nM"}
{"SMILES": "CC[C@H](C)[C@H](NC(=O)[C@H](CCCCN)NC(=O)[C@H](Cc1ccccc1)NC(=O)C[C@H](CC(C)C)NC(=O)CN)C(=O)N[C@H](CC(=O)N[C@@H](CCCCN)C(=O)N[C@@H](CCCCN)C(=O)N[C@H](CC(=O)N[C@@H](C)C(=O)N[C@@H](CCCCN)C(=O)N[C@@H](CO)C(=O)N[C@H](CC(N)=O)Cc1ccccc1)[C@@H](C)CC)[C@@H](C)CC", "assay": "cytotoxicity", "endpoint": "IC50", "result": "51.1 µg/mL"}
